# Experimental data from different studies.
# Lines come from different studies, so protocols differ. Numbers after ± are the reported error.
SMILES,tested on,test,test system,conditions,how to read,measurement,result
O=C1NC2(CC2)COc2ncc(F)cc2[C@H]2COCCN2c2ccn3ncc1c3n2,,,"Sprague-Dawley rat, male, serum","oral, 10 mg/kg/day, end of recovery, 4-week subacute toxicity",,serum triglycerides,0.39 ± 0.17 mmol/L
CC(C)(C)C(=O)OCOP(=O)(OCOC(=O)C(C)(C)C)C1CCCN(O)C1=O (stereo not drawn),NCI-H522,,,,,log LC50,-4.2 log M
CC[C@H](C)[C@H](NC(=O)[C@H](Cc1ccc(O)cc1)NC(=O)[C@@H](NC(=O)[C@H](CCCNC(=N)N)NC(=O)[C@@H](N)CC(=O)O)C(C)C)C(=O)N[C@@H](Cc1c[nH]cn1)C(=O)N1CCC[C@H]1C(=O)O,,LC-MS/MS,"Beagle dog both sexes, plasma","subcutaneous, 10 mg/kg/day, day 27, noncompartmental",,Cmax,953 ± 377 ng/mL
Cc1nc2cccc(OCC(C)(C)C(=O)NC(C)C)c2c(N)c1C(=O)[O-].[Na+],Salmonella typhimurium,,TA100,"2.0 mg per plate, with S9, preincubation",,revertant colonies per plate,136 ± 8
CN[C@H](CC(C)C)C(=O)N[C@H]1C(=O)N[C@@H](CC(N)=O)C(=O)N[C@H]2C(=N)N[C@H]3C(=O)N[C@H](C(=O)N[C@H](C(=O)NCCCNC(=N)N)c4cc(O)cc(O)c4-c4cc3ccc4O)[C@H](O)c3ccc(c(Cl)c3)Oc3cc2cc(c3O[C@@H]2O[C@H](CO)[C@@H](O)[C@H](O)[C@H]2O[C@H]2C[C@](C)(NCc3ccc(-c4ccc(Cl)cc4)cc3)[C@H](O)[C@H](C)O2)Oc2ccc(cc2Cl)[C@H]1O,,,mouse,"intravenous, 10 mg/kg",,Cmax,44000 ng/mL
C/C(=N\OCCCN1CCCCC1)c1ccc(C(F)(F)F)cc1,,,"mouse, plasma","oral, 100 mg/kg twice daily, day 7",,Cmax,1330 ± 574 ng/mL
COc1ccccc1-c1n[nH]c2nc(NC3CCN(C(=O)Cc4ccc(F)cc4F)CC3)ncc12,,"bead binding, competition bead pull-down, item: LINJ.36.6710",Leishmania donovani extract,10 µM,baseline: vehicle,relative abundance,0.8
COc1cccc2c1C(=O)c1c(O)c3c(c(O)c1C2=O)CC(O)(C(=O)CO)CC3OC1CC(NC(=O)OC2C=CCCC(C)(C(=O)NCC(=O)O)CC2)C(O)C(C)O1 (stereo not drawn),,,"Sprague Dawley rats male, plasma","intravenous, 21.5 mg/kg/day doxorubicin equivalent, day 4",,Cmax,1960 ± 236 ng/mL
COCC12CCC(OC)C34C5CC6(O)C(OC)C(O)C(O)(C5C6OC(=O)c5ccccc5)C(C(OC)C13)C4N(C)C2 (stereo not drawn),,,"Sprague-Dawley rat, plasma","oral, dose not given, with NADES in PCW extract",,Cmax,191 ± 30.9 ng/mL
O=C(CN1C(=O)C2(CCN(C(=O)c3ccc4[nH]ncc4n3)CC2)c2c(Br)cccc21)NCC(F)(F)F,,,"C57BL/6 mouse, male, plasma","intraperitoneal, 10 mg/kg",,Cmax,309 ng/mL
O=C(Nc1cccs1)c1cccnc1,,,"mouse, brain","intravenous, 5 mg/kg, brain density 1 g/mL",,Cmax,10.3 µM
O=C(c1cc(Cc2n[nH]c(=O)c3ccccc23)ccc1F)N1CC(CNC2CC2)C1,,,female Wistar Han rat,"oral, 15 mg/kg, day 28",,Cmax,1020 ng/mL

# For quick reference, copied from above:
SMILES,tested on,test,test system,conditions,how to read,measurement,result
CC(C)(C)C(=O)OCOP(=O)(OCOC(=O)C(C)(C)C)C1CCCN(O)C1=O (stereo not drawn),NCI-H522,,,,,log LC50,-4.2 log M
